# Experimental data from different studies.
# Compare with care: the assays were run in different laboratories. Numbers after ± are the reported error. Non-standard residues stand in square brackets, D forms with d. Square brackets hold non-standard residues; d marks the D form. Ends that are not written are not given here. No end group written: not given here.
# RPA1: RPA1 1-120 (Homo sapiens, UniProt P27694)
# Sequence of UniProt P27694 (whole entry, looked up): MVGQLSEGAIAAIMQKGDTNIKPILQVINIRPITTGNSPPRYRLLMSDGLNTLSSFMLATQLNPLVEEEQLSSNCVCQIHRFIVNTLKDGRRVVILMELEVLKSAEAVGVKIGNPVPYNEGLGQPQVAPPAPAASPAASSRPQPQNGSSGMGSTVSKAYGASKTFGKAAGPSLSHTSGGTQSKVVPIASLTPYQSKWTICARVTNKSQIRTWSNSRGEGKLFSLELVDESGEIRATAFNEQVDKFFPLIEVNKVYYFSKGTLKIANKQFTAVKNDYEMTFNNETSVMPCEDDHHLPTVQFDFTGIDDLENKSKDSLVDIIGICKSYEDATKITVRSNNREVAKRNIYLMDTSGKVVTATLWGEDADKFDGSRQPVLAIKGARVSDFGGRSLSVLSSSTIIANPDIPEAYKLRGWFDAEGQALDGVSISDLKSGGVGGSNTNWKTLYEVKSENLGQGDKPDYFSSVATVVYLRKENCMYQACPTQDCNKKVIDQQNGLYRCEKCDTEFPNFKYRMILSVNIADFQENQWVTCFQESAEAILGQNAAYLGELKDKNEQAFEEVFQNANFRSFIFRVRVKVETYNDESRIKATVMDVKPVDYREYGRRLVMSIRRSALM
# B1: adrenodoxin (Homo sapiens, UniProt P10109); RED dye on amines; sequence looked up; chain SSSEDKITVHFINRDGETLTTKGKVGDSLLDVVVENNLDIDGFGACEGTLACSTCHLIFEDHIYEKLDAITDEENDMLDLAYGLTDRSRLGCQICLTKSMDNMTVRVPETVADARQSIDVGKTS
# B2: DBI (Mus musculus, UniProt P31786); Cy5 label; sequence looked up; chain MSQAEFDKAAEEVKRLKTQPTDEEMLFIYSHFKQATVGDVNTDRPGLLDLKGKAKWDSWNKLKGTSKESAMKTYVEKVDELKKKYGI
# B3: enzyme (Bacillus pumilus, UniProt A8FFI9); chain EARSIAWSVDEFFKNREGTFVIQEVKEKSPWVYNKKRAKERFAPQSTFKVANALIGLQTGAVRDEYDIKYWDGVKREIDNWNRDHTLGSGMRDSVVWYYQAMARDIGEERMNHWVKAIHYGNKDISGGIDQFWLSSTLRISPIEQVRFLKQLYEETLPFDLKNMRTVKRMMVQEEEKHATLYGKTGSGSDIGWYVGFIKHEHKTYILATNIKGTGIEAKDITYRILKKYHLMEASV
# B4: FDX1 (Homo sapiens, UniProt P10109); Alexa Fluor 488 on cysteine; sequence looked up; chain SSSEDKITVHFINRDGETLTTKGKVGDSLLDVVVENNLDIDGFGACEGTLACSTCHLIFEDHIYEKLDAITDEENDMLDLAYGLTDRSRLGCQICLTKSMDNMTVRVPETVADARQSIDVGKTS
# B5: UGT1A9 (Homo sapiens, UniProt O60656); chain GKLLVVPMDGSHWFTMRSVVEKLILRGHEVVVVMPEVSWQLGRSLNCTVKTYSTSYTLEDLDREFKAFAHAQWKAQVRSIYSLLMGSYNDIFDLFFSNCRSLFKDKKLVEYLKESSFDAVFLDPFDNCGLIVAKYFSLPSVVFARGILCHYLEEGAQCPAPLSYVPRILLGFSDAMTFKERVRNHIMHLEEHLLCHRFFKNALEIASEILQTPVTEYDLYSHTSIWLLRTDFVLDYPKPVMPNMIFIGGINCHQGKPLPMEFEAYINASGEHGIVVFSLGSMVSEIPEKKAMAIADALGKIPQTVLWRYTGTRPSNLANNTILVKWLPQNDLLGHPMTRAFITHAGSHGVYESICNGVPMVMMPLFGDQMDNAKRMETKGAGVTLNVLEMTSEDLENALKAVINDKSYKENIMRLSSLHKDRPVEPLDLAVFWVEFVMRHKGAPHLRPAAHDLTWYQYHSLDVIGFLLAVVLTVAFITFKCCAYGYRKCLGKKGRVKKAHKSKTH
# B6: FADD 3-81 (Homo sapiens, UniProt Q13158); sequence looked up; chain PFLVLLHSVSSSLSSSELTELKFLCLGRVGKRKLERVQSGLDLFSMLLEQNDLEPGHTELLRELLASLRRHDLLRRVDD
# B7: IFNG (Homo sapiens, UniProt P01579); sequence looked up; chain QDPYVKEAENLKKYFNAGHSDVADNGTLFLGILKNWKEESDRKIMQSQIVSFYFKLFKNFKDDQSIQKSVETIKEDMNVKFFNSNKKKRDDFEKLTNYSVTDLNVQRKAIHELIQVMAELSPAAKTGKRKRSQMLFRG
# B8: Leptin mature (Mus musculus, UniProt P41160); Pluronic P85 on lysines, disulfide linker; sequence looked up; chain VPIQKVQDDTKTLIKTIVTRINDISHTQSVSAKQRVTGLDFIPGLHPILSLSKMDQTLAVYQQVLTSLPSQNVLQIANDLENLRDLLHLLAFSKSCSLPQTSGLQKPESLDGVLEASLYSTEVVALSRLQGSLQDILQQLDVSPEC
# B9: FGA/FGB/FGG 20-644 (Homo sapiens); chain 1 ADSGEGDFLAEGGGVRGPRVVERHQSACKDSDWPFCSDEDWNYKCPSGCRMKGLIDEVNQDFTNRINKLKNSLFEYQKNNKDSHSLTTNIMEILRGDFSSANNRDNTYNRVSEDLRSRIEVLKRKVIEKVQHIQLLQKNVRAQLVDMKRLEVDIDIKIRSCRGSCSRALAREVDLKDYEDQQKQLEQVIAKDLLPSRDRQHLPLIKMKPVPDLVPGNFKSQLQKVPPEWKALTDMPQMRMELERPGGNEITRGGSTSYGTGSETESPRNPSSAGSWNSGSSGPGSTGNRNPGSSGTGGTATWKPGSSGPGSTGSWNSGSSGTGSTGNQNPGSPRPGSTGTWNPGSSERGSAGHWTSESSVSGSTGQWHSESGSFRPDSPGSGNARPNNPDWGTFEEVSGNVSPGTRREYHTEKLVTSKGDKELRTGKEKVTSGSTTTTRRSCSKTVTKTVIGPDGHKEVTKEVVTSEDGSDCPEAMDLGTLSGIGTLDGFRHRHPDEAAFFDTASTGKTFPGFFSPMLGEFVSETESRGSESGIFTNTKESSSHHPGIAEFPSRGKSSSYSKQFTSSTSYNRGDSTFESKSYKMADEAGSEADHEGTHSTKRGHAKSRPVRGIHTSPLGKPSLSP; chain 2 QGVNDNEEGFFSARGHRPLDKKREEAPSLRPAPPPISGGGYRARPAKAAATQKKVERKAPDAGGCLHADPDLGVLCPTGCQLQEALLQQERPIRNSVDELNNNVEAVSQTSSSSFQYMYLLKDLWQKRQKQVKDNENVVNEYSSELEKHQLYIDETVNSNIPTNLRVLRSILENLRSKIQKLESDVSAQMEYCRTPCTVSCNIPVVSGKECEEIIRKGGETSEMYLIQPDSSVKPYRVYCDMNTENGGWTVIQNRQDGSVDFGRKWDPYKQGFGNVATNTDGKNYCGLPGEYWLGNDKISQLTRMGPTELLIEMEDWKGDKVKAHYGGFTVQNEANKYQISVNKYRGTAGNALMDGASQLMGENRTMTIHNGMFFSTYDRDNDGWLTSDPRKQCSKEDGGGWWYNRCHAANPNGRYYWGGQYTWDMAKHGTDDGVVWMNWKGSWYSMRKMSMKIRPFFPQQ; chain 3 YVATRDNCCILDERFGSYCPTTCGIADFLSTYQTKVDKDLQSLEDILHQVENKTSEVKQLIKAIQLTYNPDESSKPNMIDAATLKSRKMLEEIMKYEASILTHDSSIRYLQEIYNSNNQKIVNLKEKVAQLEAQCQEPCKDTVQIHDITGKDCQDIANKGAKQSGLYFIKPLKANQQFLVYCEIDGSGNGWTVFQKRLDGSVDFKKNWIQYKEGFGHLSPTGTTEFWLGNEKIHLISTQSAIPYALRVELEDWNGRTSTADYAMFKVGPEADKYRLTYAYFAGGDAGDAFDGFDFGDDPSDKFFTSHNGMQFSTWDNDNDKFEGNCAEQDGSGWWMNKCHAGHLNGVYYQGGTYSKASTPNGYDNGIIWATWKTRWYSMKKTTMKIIPFNRLTIGEGQQHHLGGAKQAGDV
# B10: CLASP1/GFP 1-654 (Homo sapiens); chain MEPRMESCLAQVLQKDVGKRLQVGQELIDYFSDKQKSADLEHDQTMLDKLVDGLATSWVNSSNYKVVLLGMDILSALVTRLQDRFKAQIGTVLPSLIDRLGDAKDSVREQDQTLLLKIMDQAANPQYVWDRMLGGFKHKNFRTREGICLCLIATLNASGAQTLTLSKIVPHICNLLGDPNSQVRDAAINSLVEIYRHVGERVRADLSKKGLPQSRLNVIFTKFDEVQKSGNMIQSANDKNFDDEDSVDGNRPSSASSTSSKAPPSSRRNVGMGTTRRLGSSTLGSKSSAAKEGAGAVDEEDFIKAFDDVPVVQIYSSRDLEESINKIREILSDDKHDWEQRVNALKKIRSLLLAGAAEYDNFFQHLRLLDGAFKLSAKDLRSQVVREACITLGHLSSVLGNKFDHGAEAIMPTIFNLIPNSAKIMATSGVVAVRLIIRHTHIPRLIPVITSNCTSKSVAVRRRCFEFLDLLLQEWQTHSLERHISVLAETIKKGIHDADSEARIEARKCYWGFHSHFSREAEHLYHTLESSYQKALQSHLKNSDSIVSLPQSDRSSSSSQESLNRPLSAKRSPTGSTTSRASTVSTKSVSTTGSLQRSRSDIDVNAAASAKSKVSSSSGTTPFSSAAALPPGSYASLGRIRTRRQSSGSATNVA
# Sequence of UniProt O43663 (whole entry, looked up): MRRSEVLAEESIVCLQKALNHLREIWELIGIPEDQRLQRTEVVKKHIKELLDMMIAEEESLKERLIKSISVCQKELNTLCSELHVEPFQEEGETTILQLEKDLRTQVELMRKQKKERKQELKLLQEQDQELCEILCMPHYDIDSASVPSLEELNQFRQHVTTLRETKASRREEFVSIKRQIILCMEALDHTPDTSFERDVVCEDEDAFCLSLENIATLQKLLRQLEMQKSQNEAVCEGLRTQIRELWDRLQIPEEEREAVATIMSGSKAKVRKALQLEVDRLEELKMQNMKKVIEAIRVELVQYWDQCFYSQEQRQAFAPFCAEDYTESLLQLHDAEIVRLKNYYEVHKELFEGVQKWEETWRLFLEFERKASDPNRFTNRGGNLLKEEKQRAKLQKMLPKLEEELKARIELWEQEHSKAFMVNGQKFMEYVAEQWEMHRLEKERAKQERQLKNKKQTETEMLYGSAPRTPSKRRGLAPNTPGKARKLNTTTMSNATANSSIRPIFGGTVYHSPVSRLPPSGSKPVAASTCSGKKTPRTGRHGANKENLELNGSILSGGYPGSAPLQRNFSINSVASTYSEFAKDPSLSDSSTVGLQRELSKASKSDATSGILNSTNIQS
# Sequence of UniProt P54760 (whole entry, looked up): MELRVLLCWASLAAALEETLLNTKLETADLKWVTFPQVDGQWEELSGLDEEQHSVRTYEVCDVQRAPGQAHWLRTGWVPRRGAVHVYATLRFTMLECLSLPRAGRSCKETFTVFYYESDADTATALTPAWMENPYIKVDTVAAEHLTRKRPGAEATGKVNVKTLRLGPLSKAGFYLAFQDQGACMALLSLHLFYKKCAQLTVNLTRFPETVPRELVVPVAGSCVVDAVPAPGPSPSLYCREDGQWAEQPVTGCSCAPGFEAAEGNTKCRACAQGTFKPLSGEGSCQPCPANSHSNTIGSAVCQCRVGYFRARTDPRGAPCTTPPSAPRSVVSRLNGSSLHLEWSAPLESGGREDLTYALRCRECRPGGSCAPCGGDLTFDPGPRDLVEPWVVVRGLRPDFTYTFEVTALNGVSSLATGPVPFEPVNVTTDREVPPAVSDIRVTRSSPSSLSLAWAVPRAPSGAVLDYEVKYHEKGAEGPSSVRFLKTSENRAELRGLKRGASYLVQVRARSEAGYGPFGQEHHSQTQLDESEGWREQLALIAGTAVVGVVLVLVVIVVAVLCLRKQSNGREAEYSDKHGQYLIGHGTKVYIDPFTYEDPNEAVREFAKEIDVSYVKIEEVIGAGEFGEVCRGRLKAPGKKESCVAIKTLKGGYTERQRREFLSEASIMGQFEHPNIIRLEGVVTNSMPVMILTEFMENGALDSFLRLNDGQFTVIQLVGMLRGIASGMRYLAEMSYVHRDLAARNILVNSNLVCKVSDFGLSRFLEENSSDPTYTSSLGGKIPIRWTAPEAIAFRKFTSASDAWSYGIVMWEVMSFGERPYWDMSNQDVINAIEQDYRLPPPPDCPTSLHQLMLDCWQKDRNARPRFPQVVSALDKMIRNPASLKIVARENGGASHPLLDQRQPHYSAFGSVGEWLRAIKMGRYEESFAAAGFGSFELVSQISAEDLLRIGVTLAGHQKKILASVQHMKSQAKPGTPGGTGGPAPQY
# Sequence of UniProt Q15116 (whole entry, looked up): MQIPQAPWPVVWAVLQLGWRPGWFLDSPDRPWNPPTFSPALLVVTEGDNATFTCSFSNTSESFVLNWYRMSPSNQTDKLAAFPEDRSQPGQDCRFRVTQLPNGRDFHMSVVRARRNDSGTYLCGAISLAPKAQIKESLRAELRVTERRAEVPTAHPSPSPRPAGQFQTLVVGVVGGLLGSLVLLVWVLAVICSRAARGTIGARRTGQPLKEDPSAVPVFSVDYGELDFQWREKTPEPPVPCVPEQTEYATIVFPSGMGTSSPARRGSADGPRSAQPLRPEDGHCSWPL
# Sequence of UniProt P48357 (whole entry, unmodified, looked up): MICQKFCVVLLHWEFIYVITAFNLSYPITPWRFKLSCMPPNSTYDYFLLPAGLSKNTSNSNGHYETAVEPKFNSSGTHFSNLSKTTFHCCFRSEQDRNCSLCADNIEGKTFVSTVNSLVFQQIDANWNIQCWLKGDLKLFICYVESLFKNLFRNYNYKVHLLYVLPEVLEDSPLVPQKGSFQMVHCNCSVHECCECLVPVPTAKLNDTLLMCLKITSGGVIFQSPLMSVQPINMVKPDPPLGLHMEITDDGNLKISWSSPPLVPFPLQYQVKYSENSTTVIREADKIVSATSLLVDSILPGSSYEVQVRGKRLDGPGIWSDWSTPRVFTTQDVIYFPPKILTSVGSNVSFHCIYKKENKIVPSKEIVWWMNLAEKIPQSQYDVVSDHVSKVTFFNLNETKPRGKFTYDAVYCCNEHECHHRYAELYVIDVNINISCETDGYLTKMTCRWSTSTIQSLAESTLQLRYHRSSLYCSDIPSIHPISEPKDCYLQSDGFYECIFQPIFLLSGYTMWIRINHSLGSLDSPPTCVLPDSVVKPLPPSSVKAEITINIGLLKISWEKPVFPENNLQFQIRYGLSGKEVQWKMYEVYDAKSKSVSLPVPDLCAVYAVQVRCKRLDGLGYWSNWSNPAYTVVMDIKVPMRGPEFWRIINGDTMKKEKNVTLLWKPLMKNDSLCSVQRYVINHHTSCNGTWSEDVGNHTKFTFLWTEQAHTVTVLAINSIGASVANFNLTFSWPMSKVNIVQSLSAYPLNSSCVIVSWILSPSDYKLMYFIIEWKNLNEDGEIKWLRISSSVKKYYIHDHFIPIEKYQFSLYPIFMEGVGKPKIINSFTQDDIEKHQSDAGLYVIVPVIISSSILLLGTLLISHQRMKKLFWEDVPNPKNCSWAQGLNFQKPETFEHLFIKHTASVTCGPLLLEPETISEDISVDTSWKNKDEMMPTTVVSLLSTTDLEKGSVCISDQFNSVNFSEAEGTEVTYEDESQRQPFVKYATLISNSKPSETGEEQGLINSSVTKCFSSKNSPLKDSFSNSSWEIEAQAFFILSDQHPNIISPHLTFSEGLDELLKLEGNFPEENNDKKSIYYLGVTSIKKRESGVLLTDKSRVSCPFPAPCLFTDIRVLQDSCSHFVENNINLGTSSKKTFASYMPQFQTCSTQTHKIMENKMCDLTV
# Sequence of UniProt P06702 (whole entry, looked up): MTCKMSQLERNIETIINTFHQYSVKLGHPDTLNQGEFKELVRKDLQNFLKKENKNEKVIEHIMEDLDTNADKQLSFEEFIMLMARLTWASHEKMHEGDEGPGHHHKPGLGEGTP
# Sequence of UniProt Q13185 (whole entry, looked up): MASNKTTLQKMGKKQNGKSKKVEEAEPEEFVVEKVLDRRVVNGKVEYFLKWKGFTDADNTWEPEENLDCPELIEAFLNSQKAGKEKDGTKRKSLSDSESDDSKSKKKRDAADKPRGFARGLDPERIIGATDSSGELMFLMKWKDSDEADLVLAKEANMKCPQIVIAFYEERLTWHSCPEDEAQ
# Sequence of UniProt P32198 (whole entry, looked up): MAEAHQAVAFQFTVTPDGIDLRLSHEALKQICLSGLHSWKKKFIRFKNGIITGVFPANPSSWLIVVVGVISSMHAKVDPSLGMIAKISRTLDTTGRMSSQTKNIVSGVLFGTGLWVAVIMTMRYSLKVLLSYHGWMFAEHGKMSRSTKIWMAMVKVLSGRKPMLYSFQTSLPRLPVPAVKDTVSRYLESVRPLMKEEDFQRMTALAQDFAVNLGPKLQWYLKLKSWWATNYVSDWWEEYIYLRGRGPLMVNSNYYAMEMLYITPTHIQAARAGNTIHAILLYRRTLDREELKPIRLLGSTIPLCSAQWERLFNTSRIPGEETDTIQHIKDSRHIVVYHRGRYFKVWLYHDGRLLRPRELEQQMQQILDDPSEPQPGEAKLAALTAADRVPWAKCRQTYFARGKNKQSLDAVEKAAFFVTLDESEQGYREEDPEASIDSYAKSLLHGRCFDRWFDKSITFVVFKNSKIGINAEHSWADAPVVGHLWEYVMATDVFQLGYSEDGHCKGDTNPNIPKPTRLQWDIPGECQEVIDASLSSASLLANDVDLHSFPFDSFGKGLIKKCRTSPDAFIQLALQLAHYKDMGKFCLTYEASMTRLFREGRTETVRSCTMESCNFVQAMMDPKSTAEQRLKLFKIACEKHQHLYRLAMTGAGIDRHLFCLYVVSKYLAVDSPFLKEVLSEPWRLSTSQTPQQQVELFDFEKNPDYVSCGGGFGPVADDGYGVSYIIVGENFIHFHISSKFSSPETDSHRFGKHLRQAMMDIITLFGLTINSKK
# Sequence of UniProt O60573 (whole entry, looked up): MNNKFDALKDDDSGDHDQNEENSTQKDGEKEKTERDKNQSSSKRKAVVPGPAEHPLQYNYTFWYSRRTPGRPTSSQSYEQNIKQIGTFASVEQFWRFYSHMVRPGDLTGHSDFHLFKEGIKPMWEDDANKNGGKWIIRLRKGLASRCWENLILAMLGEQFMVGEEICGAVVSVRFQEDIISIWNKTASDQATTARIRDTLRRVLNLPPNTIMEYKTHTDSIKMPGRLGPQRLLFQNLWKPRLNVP
Substance,tested on,assay,test system,conditions,endpoint,result
BCL9 HD2B peptide,"CTNNB1 (Homo sapiens, UniProt P35222)",AlphaScreen,,,Kd,4.33 nM
"GSHMSDLACRLLGQSMDESGLPQLTSYDCEVNAPIQGSRNLLQGEELLRALDQVN (HIF1A CTAD residues 776-826 (Homo sapiens, UniProt Q16665))","Crebbp 340-439 (Mus musculus, UniProt P45481)","competition with ligand, fluorescence polarisation",peptide,"pH 6.8, 298 K, NaCl 50 mM, apparent",Kd,9 ± 2 nM
ATRIP fragment E8A,RPA1,"competition with ATRIP probe, fluorescence polarisation",,"pH 7.5, NaCl 75 mM",Kd,22000 nM
TNYLFSPNGPIARAW (TNYL-RAW),"EPHB4 16-539 (Homo sapiens, UniProt P54760)",SPR,peptide,,Kd,3.06 nM
B1 (adrenodoxin),"CYP27A1 (Homo sapiens, UniProt Q02318)",MST,,"pH 7.4, 25 °C, oxidized, single-site model",Kd,50 nM
B2 (DBI),"CPT1A 381-469, Cy3 label (Rattus norvegicus, UniProt P32198)",FRET,,24 °C,Kd,5 nM
LEQKAASCHNSYIVLCIENSFMTSFSK (Col18a1 C-terminal endostatin peptide (Mus musculus)),"Flt4 25-775 (Mus musculus, UniProt P35917)",SPR,peptide,,Kd,47.8 nM
ATRIP,RPA1,fluorescence polarisation,,"pH 7.5, NaCl 75 mM",Kd,7400 nM
"ARTKQTARKSTGGK (histone H3 2-15 (Homo sapiens, UniProt P68431); K9me3; sequence looked up)","CBX3, C-terminal Atto532, amide (Homo sapiens, UniProt Q13185)",MST,peptide,,Kd,4100 ± 1000 nM
B3 (enzyme),CC1(C)S[C@@H]2[C@H](NC(=O)[C@H](C(=O)O)c3ccsc3)C(=O)N2[C@H]1C(=O)O,steady-state kinetics,,pH 7,kcat,39 ± 2 s⁻¹
Insulin human,,ELISA,"rat, substantia nigra/ventral tegmental area","intranasal, 20 µg per nostril, 15 min",concentration,218 ± 73.8 pg/mg tissue
KYKLADYRYGREEMLALYVK (GIGYF1(33-52) peptide; sequence looked up),"EIF4E2 (Homo sapiens, UniProt O60573)","binding, isothermal titration calorimetry",peptide,"pH 7.0, 20 °C",Kd,360 nM
"MPIFLDHILNKFWILHYASG (SPAM peptide; C-terminal propargylglycine, ROX label)","CD274 ectodomain, N-glycosylated (Homo sapiens)",fluorescence polarisation,peptide,100 nM,Kd,67 ± 21 nM
B4 (FDX1),"FDXR (Bos taurus, UniProt P08165)",fluorescence titration,,pH 7.4,Kd,19 ± 5 nM
B5 (UGT1A9),COc1ccccc1-c1cc(=O)c2ccc(O)cc2o1,steady-state kinetics,,"pH 7.4, 37 °C",Vmax/Km,1010 µL/min/mg
GVVEVDAAV[pT]PEERHLSKMQQNGY (APP 659-682 (UniProt P05067-4); pT668; pT = C[C@@H](OP(=O)(O)O)[C@H](N)C(=O)O; sequence looked up),"PIN1 WW domain 1-53 (Homo sapiens, UniProt Q13526)",ITC,peptide,"pH 6.9, 25 °C, trans isomer",Kd,27000 nM
anti-CD45 clone #4/nivolumab diabody bispecific diabody,"PDCD1 ectodomain 25-170 (Homo sapiens, UniProt Q15116)",SPR,,"25 °C, equilibrium",Kd,29 nM
ETDKE[pY][pY]TVKD (JAK1 1029-1039; pY1034/pY1035; pY = N[C@@H](Cc1ccc(OP(=O)(O)O)cc1)C(=O)O),"PTPN6 243-530 Q252A/C453S (Homo sapiens, UniProt P29350)",ITC,peptide,"pH 8.0, 25 °C, NaCl 100 mM",Kd,600 ± 100 nM
"GCGGACGGACAGAGAGUGCAACCUGCCGUGCCGC (ssRNA; 2'-F pyrimidines, 5' thiol-C6)",ITGA5/ITGB1 on cells (Homo sapiens),flow cytometry,T24,"MgCl2 1 mM, CaCl2 0.5 mM, not purified",Kd,232 ± 29.7 nM
B6 (FADD 3-81),"CASP8 tandem DED Y8A, TAMRA label",fluorescence polarization,,apparent,Kd,823 nM
GAGUUGAGUUGAGUUGAGUUGAGUUGAGUUGAGUUGAGUUGAGUUGAGUUGAGUU (ssRNA; single strand),"mtrB full length assumed K56A (Bacillus subtilis, UniProt P19466)",filter binding,,together with: L-tryptophan 1 mM,Kd,35 ± 4 nM
"LDYHFGLEEGEGIRDLFD (E2F1 409-426 (Homo sapiens, UniProt Q01094); sequence looked up)",RB1 55-787 del245-267/del582-642 (UniProt P06400),ITC,,"pH 8.0, NaCl 100 mM, together with: LxCxE peptide 100 µM",Kd,70 nM
B7 (IFNG),"IFNGR1 (Homo sapiens, UniProt P15260)",radioligand binding,Raji,apparent,Kd,0.1 nM
human neutrophil elastase,"Protein S100-A9 (S100A9, Homo sapiens, UniProt P06702)",ELISA,,"70 min, 37 °C",Kd,> 100 nM
B8 (Leptin mature),"LEPR 22-839 (Homo sapiens, UniProt P48357)",SPR,,"pH 7.4, NaCl 150 mM",Kd,1.09 nM
B9 (FGA/FGB/FGG 20-644),ITGA2B/ITGB3 heterodimer (Homo sapiens),radioligand binding,washed platelets,"together with: ADP, Ca2+ 2 mM, Mg2+ 1 mM, Zn2+ 50 µM",Kd,665 nM
B10 (CLASP1/GFP 1-654),"PRC1 (Homo sapiens, UniProt O43663)",BLI,,,Kd,> 10000 nM

# A few entries again:
Substance,tested on,assay,test system,conditions,endpoint,result
human neutrophil elastase,"Protein S100-A9 (S100A9, Homo sapiens, UniProt P06702)",ELISA,,"70 min, 37 °C",Kd,> 100 nM
B8 (Leptin mature),"LEPR 22-839 (Homo sapiens, UniProt P48357)",SPR,,"pH 7.4, NaCl 150 mM",Kd,1.09 nM
